{"data": "Results collected from several papers", "note": "Each numbered part is a random draw from the data of one study; scales do not carry over between parts."}
{"data": "Block 1", "target": "Fragile X messenger ribonucleoprotein 1, C-terminal low-complexity region (Fmr1, Mus musculus, UniProt P35922)", "technique": "RNA Bind-n-Seq", "form": "RNA", "matrix": "in vitro", "tested at": "200 nM", "setting": "whole 134-nt RNA, ends assumed", "together with": "150 mM KCl", "relative to": "input library", "direction": "higher = stronger binding", "shared flanks, not repeated": "GGGAGUUCUACAGUCCGACGAUC … UGGAAUUCUCGGGUGUCAAGG"}
{"Sequence": "AAGUCCUGUGCUACACAUCGUAUGUACCGAAUCGGAAAAAAAGGAGGAAAAAAAGGAAAGUAUUAUGUUACGCCGUUCGGAUCUGCACUU", "log2 enrichment": -0.702}
{"Sequence": "CCUGUGCUACACAUCGUAUGUACCGAAUCGGGGCCCCCCGGGGCCCCCCGGCCCCCCGGGAAAGUAUUAUGUUACGCCGUUCGGAUCUGC", "log2 enrichment": -0.953}
{"Sequence": "CCUCAAGUCCUGUGCUACACAUCGUAUGUACCGAAUCGGGUGGGGUGGGUGGGAAAGUAUUAUGUUACGCCGUUCGGAUCUGCACUUCCA", "log2 enrichment": 1.38}
{"Sequence": "AGUCCUGUGCUACACAUCGUAUGUACCGAAUCGGGGAGGGGUUUUUGGGGUUUGGGGAAAGUAUUAUGUUACGCCGUUCGGAUCUGCACU", "log2 enrichment": 1.04}
{"Sequence": "UCCUCAAGUCCUGUGCUACACAUCGUAUGUACCGAAUCGGGUGGUGGGUGGGAAAGUAUUAUGUUACGCCGUUCGGAUCUGCACUUCCAG", "log2 enrichment": 1.37}
{"Sequence": "CUCAAGUCCUGUGCUACACAUCGUAUGUACCGAAUCGGGUUGGGUUGGGUUGGGAAAGUAUUAUGUUACGCCGUUCGGAUCUGCACUUCC", "log2 enrichment": 1.26}
{"Sequence": "AAGUCCUGUGCUACACAUCGUAUGUACCGAAUCGGUUUUUUUGGAAAGGUUUUUGGAAAGUAUUAUGUUACGCCGUUCGGAUCUGCACUU", "log2 enrichment": -1.13}
{"Sequence": "CUCAAGUCCUGUGCUACACAUCGUAUGUACCGAAUCGGUUUGGAAAAAGGAGGAAAGUAUUAUGUUACGCCGUUCGGAUCUGCACUUCCA", "log2 enrichment": -0.165}
{"Sequence": "UACCCUCGUGCCCCUGUUUUUCCUGGCCGUGGUAGUUACUCAAACAGAGGGAACUACAACAGAGGUGGAAUGCCCAACAGAGGGAACUAC", "log2 enrichment": -0.797}
{"data": "Block 2", "target": "Interferon regulatory factor 5, full length, phosphomimetic (IRF5, Homo sapiens, UniProt Q13568-2, residues 1-514, S451D/S453D/S456D/S462D)", "technique": "protein-binding microarray", "form": "double-stranded DNA, one strand shown", "matrix": "in vitro", "tested at": "940 nM top", "setting": "60-bp whole probe", "together with": "salmon DNA 0.4 mg/ml", "relative to": "random background probes", "direction": "higher = stronger binding", "shared flanks, not repeated": "GCCTAGCAC … GTCTTGATTCGCTTGACGCTGCTG"}
{"Sequence": "GAGGGTATCGGTCTCGGGACGTGCTAG", "fitted relative affinity": "6.18 z-score"}
{"Sequence": "GACGGTATCGCTTTCGGGACGTGCTAG", "fitted relative affinity": "5.58 z-score"}
{"Sequence": "TTAGGTATCGGGTTCGGTTAGTGCTAG", "fitted relative affinity": "5.66 z-score"}
{"Sequence": "CATCATTTTTCCCTCTGGAAGTGCTAG", "fitted relative affinity": "1.14 z-score"}
{"Sequence": "GACGGTATCGGGTATCGTGACGTGCTA", "fitted relative affinity": "4.95 z-score"}
{"Sequence": "GATGGACTGCTTATCCTGACGTGCTAG", "fitted relative affinity": "-0.0946 z-score"}
{"Sequence": "CTTCTTTTTTTTCTTTAAAAGTGCTAG", "fitted relative affinity": "1.61 z-score"}
{"Sequence": "TCAACACTCACCATGGCACTGTGCTAG", "fitted relative affinity": "0.125 z-score"}
{"Sequence": "GACGATTTCCGGTTTCGAGACGTGCTA", "fitted relative affinity": "3.32 z-score"}
{"Sequence": "GACAATTTCAGACTGGAGACGTGCTAG", "fitted relative affinity": "-0.45 z-score"}
{"Sequence": "GACGATCTCATTCTCGAGACGTGCTAG", "fitted relative affinity": "1.31 z-score"}
{"Sequence": "CACGGTATCCTACTGCTGACGTGCTAG", "fitted relative affinity": "0.24 z-score"}
{"Sequence": "GACGGACCGCTTCTCCTGACGTGCTAG", "fitted relative affinity": "-0.521 z-score"}
{"Sequence": "TTAGGACTGGGGTTTCGTTTAGTGCTA", "fitted relative affinity": "3.11 z-score"}
{"Sequence": "TAAGGTATCGGGTTTCGGTTAGTGCTA", "fitted relative affinity": "7.48 z-score"}
{"Sequence": "GACGATATCAATATCGAGACGTGCTAG", "fitted relative affinity": "0.0822 z-score"}
{"Sequence": "TTAGAACTGCGTCTCGATTAGTGCTAG", "fitted relative affinity": "0.429 z-score"}
{"Sequence": "TTAGGTTTCGTTCTCCTTTAGTGCTAG", "fitted relative affinity": "10.8 z-score"}
{"Sequence": "GACGAACTGAGACTGGAGAAGTGCTAG", "fitted relative affinity": "-0.0739 z-score"}
{"data": "Block 3", "target": "Sal-like protein 4, full length isoform A (SALL4, Homo sapiens, UniProt Q9UJQ4, residues 1-1053)", "technique": "universal PBM", "form": "double-stranded DNA, one strand shown", "matrix": "in vitro", "tested at": "600 nM", "setting": "8-mer, flanks averaged, mean of replicates", "direction": "higher = stronger binding", "chain of UniProt Q9UJQ4 (whole entry, looked up)": "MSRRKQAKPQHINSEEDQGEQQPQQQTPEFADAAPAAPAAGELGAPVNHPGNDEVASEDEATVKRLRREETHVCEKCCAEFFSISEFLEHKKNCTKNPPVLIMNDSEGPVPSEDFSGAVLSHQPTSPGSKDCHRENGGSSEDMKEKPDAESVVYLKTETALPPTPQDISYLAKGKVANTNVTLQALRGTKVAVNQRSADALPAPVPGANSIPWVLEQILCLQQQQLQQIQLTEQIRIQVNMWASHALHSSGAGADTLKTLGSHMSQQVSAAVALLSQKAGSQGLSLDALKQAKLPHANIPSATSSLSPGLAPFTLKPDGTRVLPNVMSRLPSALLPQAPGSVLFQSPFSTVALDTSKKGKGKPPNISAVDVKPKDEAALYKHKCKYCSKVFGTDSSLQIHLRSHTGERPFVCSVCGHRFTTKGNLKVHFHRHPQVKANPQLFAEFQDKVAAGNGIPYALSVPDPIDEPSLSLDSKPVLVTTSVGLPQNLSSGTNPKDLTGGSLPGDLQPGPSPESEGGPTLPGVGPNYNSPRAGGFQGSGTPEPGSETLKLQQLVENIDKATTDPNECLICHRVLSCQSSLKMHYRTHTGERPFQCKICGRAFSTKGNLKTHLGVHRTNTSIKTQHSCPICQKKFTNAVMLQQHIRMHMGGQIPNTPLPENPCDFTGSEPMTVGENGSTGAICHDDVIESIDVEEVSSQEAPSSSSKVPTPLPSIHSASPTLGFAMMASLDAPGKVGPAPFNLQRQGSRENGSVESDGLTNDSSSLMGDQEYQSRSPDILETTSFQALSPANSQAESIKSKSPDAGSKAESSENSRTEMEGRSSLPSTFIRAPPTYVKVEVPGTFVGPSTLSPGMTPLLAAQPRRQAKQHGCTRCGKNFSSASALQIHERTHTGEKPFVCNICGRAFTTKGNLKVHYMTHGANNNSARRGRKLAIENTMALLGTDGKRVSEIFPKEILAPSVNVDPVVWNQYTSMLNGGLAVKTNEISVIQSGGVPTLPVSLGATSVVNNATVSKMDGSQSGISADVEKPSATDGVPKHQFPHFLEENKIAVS"}
{"Sequence": "CGAGACAC", "E-score": -0.218}
{"Sequence": "AAAAGCGG", "E-score": -0.213}
{"Sequence": "CATCGGCG", "E-score": -0.27}
{"Sequence": "AACAATCA", "E-score": 0.224}
{"Sequence": "AAACTCTC", "E-score": -0.0421}
{"Sequence": "GCCAGTTA", "E-score": 0.0253}
{"Sequence": "GGAATCCC", "E-score": -0.212}
{"Sequence": "AGGCGCCG", "E-score": -0.315}
{"Sequence": "AGGCTGCG", "E-score": -0.203}
{"Sequence": "AATTATAG", "E-score": 0.377}
{"Sequence": "ACCCACGT", "E-score": -0.2}
{"Sequence": "ATGAAGAG", "E-score": 0.234}
{"Sequence": "CTAGGGTC", "E-score": -0.287}
{"Sequence": "ACATAACA", "E-score": 0.275}
{"Sequence": "AAGGTATA", "E-score": 0.288}
{"Sequence": "AGCACACC", "E-score": -0.178}
{"data": "Block 4", "target": "Protein C-ets-1 (ETS1, Homo sapiens, UniProt P14921, residues 1-441, K379A, full length assumed)", "technique": "protein-binding microarray", "form": "double-stranded DNA, one strand shown", "matrix": "in vitro", "tested at": "not given", "setting": "k-mer, scored over probes, only values ≥0.25", "direction": "higher = stronger binding", "Target sequence (chain)": "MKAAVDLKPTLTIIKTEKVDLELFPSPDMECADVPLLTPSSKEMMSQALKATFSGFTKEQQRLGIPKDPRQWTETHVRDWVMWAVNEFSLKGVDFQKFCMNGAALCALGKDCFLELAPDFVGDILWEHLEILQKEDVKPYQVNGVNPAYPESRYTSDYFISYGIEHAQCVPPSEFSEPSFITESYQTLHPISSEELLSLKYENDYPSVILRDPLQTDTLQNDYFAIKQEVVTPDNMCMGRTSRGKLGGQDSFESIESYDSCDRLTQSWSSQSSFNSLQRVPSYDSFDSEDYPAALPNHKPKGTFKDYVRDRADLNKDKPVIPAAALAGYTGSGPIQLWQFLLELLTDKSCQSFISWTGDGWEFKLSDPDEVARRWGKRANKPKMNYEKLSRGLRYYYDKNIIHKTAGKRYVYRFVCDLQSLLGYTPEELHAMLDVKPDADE"}
{"Sequence": "CCGGTTAA", "E-score": 0.437}
{"Sequence": "CCCGGCGC", "E-score": 0.299}
{"Sequence": "CACATATA", "E-score": 0.324}
{"Sequence": "CGACCGCC", "E-score": 0.296}
{"Sequence": "TGACAACA", "E-score": 0.285}
{"Sequence": "CCGTACCG", "E-score": 0.262}
{"Sequence": "CCGGAAGC", "E-score": 0.449}
{"Sequence": "GCGACATA", "E-score": 0.28}
{"Sequence": "ACCGGCGA", "E-score": 0.375}
{"Sequence": "CCCGGTTA", "E-score": 0.392}
{"Sequence": "GGACGTCC", "E-score": 0.283}
{"Sequence": "ACGACCGG", "E-score": 0.375}
{"Sequence": "TAACGTTA", "E-score": 0.281}
{"Sequence": "CATATGGG", "E-score": 0.263}
{"Sequence": "GTAAACGA", "E-score": 0.269}
{"Sequence": "CATTTCCG", "E-score": 0.326}
{"Sequence": "AACCGGCT", "E-score": 0.317}
{"Sequence": "CCGGAGTC", "E-score": 0.27}
{"Sequence": "AATGTACT", "E-score": 0.259}
{"Sequence": "CCCCGGTA", "E-score": 0.441}
{"Sequence": "AGTACGTC", "E-score": 0.28}
{"Sequence": "ACCGGTCC", "E-score": 0.41}
{"Sequence": "GGCGGGGA", "E-score": 0.352}
{"Sequence": "GGACACAC", "E-score": 0.273}
{"Sequence": "CCGACACA", "E-score": 0.264}
{"note": "Excerpt of the above (block 2):"}
{"Sequence": "GACAATTTCAGACTGGAGACGTGCTAG", "fitted relative affinity": "-0.45 z-score"}
{"Sequence": "GACGATTTCCGGTTTCGAGACGTGCTA", "fitted relative affinity": "3.32 z-score"}
{"Sequence": "TTAGGTATCGGGTTCGGTTAGTGCTAG", "fitted relative affinity": "5.66 z-score"}
{"Sequence": "GACGAACTGAGACTGGAGAAGTGCTAG", "fitted relative affinity": "-0.0739 z-score"}
{"Sequence": "GATGGACTGCTTATCCTGACGTGCTAG", "fitted relative affinity": "-0.0946 z-score"}
{"Sequence": "GACGATATCAATATCGAGACGTGCTAG", "fitted relative affinity": "0.0822 z-score"}
{"Sequence": "GAGGGTATCGGTCTCGGGACGTGCTAG", "fitted relative affinity": "6.18 z-score"}
{"Sequence": "TTAGGTTTCGTTCTCCTTTAGTGCTAG", "fitted relative affinity": "10.8 z-score"}
